Measured values of several laboratories.
Lines come from different studies, so protocols differ.
Cell line: RXF 393

For `CC(=O)OC[C@H]1O[C@@H](Sc2sc(C(=O)c3ccc(Br)cc3)c(N)c2-c2nc3ccccc3s2)[C@H](OC(C)=O)[C@@H](OC(C)=O)[C@H]1OC(C)=O`, the growth was 115% (SRB; 10 µM, 48 h; relative to: untreated).
With `COc1cc(CNC(=O)C[C@H](C)CCC=C(C)C)ccc1OCc1cn(-c2cccc([N+](=O)[O-])c2)nn1` the growth percent was 83% (SRB; 10 µM, 48 h).
For `CC(=O)c1cccc(NC2C(N)C(NC(=O)N(C)C)(C(C)O)C(O)C2(O)COC(=O)c2c(C)cccc2O)c1` (centres unmarked), the GI50 was 64 nM (cell growth or viability, SRB).
`COc1cc(CNC(=O)C[C@H](C)CCC=C(C)C)ccc1OCc1cn(-c2ccc(Br)cc2)nn1` gave a growth percent of 61.8% (SRB; 10 µM, 48 h).
`O=C1Nc2ccccc2/C1=N\Nc1nnc2n1N=C(c1ccc(Cl)cc1)CS2` has an inhibition of 30% (cell growth or viability, SRB; 10 µM).
`COc1cc(CNC(=O)C[C@H](C)CCC=C(C)C)ccc1OCc1cn(-c2cccc(Cl)c2)nn1` has a growth percent of 79.9% (SRB; 10 µM, 48 h).
For `CC/C=C\C/C=C\C/C=C\C/C=C\C/C=C\C/C=C\CCC(=O)Nc1ccn(C2OC(CO)C(O)C2(F)F)c(=O)n1` (centres unmarked), the TGI was 15100 nM (NCI60 screen).
For `COc1cc(CNC(=O)C[C@H](C)CCC=C(C)C)ccc1OCc1cn(-c2ccc(C#N)cc2)nn1`, the growth percent was 49.4% (SRB; 10 µM, 48 h).
With `CC(=C(c1ccc(O)cc1)c1ccc(Cl)cc1)c1ccc(Cl)cc1` the GI50 was 500 nM (cell growth or viability).
For `C1=[N+]2CCCC[N+]3=Cc4ccc5[n]4[Au-]23[n]2c1ccc2-c1nc2ccccc2nc1-5.F[P-](F)(F)(F)(F)F`, the IC50 was 1300 nM (cell growth).
For `CC(=O)OC[C@H]1O[C@@H](Sc2sc(C(=O)c3ccc(C)cc3)c(N)c2-c2nc3ccccc3s2)[C@H](OC(C)=O)[C@@H](OC(C)=O)[C@H]1OC(C)=O`, the growth was 96.3% (SRB; 10 µM, 48 h; relative to: untreated).
For `CC(=O)OCC1(O)C(Nc2cccc(C(C)=O)c2)C(N)C(NC(=O)N(C)C)(C(C)OC(C)=O)C1(C)O` (centres unmarked), the GI50 was 610 nM (cell growth or viability, SRB).
The GI50 of `CCC(=C(c1ccc(Cl)cc1)c1ccc(OCCCN(C)C)cc1)c1ccc(OC)cc1` is reported as 1160 nM (cell growth or viability).
With `COc1ccc(C2=Nn3c(NN=C4C(=O)N(C)c5ccc(Br)cc54)nnc3SC2)cc1` the inhibition was 12% (cell growth or viability, SRB; 10 µM).

For quick reference, copied from above:
For `CC(=O)OC[C@H]1O[C@@H](Sc2sc(C(=O)c3ccc(C)cc3)c(N)c2-c2nc3ccccc3s2)[C@H](OC(C)=O)[C@@H](OC(C)=O)[C@H]1OC(C)=O`, the growth was 96.3% (SRB; 10 µM, 48 h; relative to: untreated).
